Experimental data of several laboratories.
Each line is one published result; not all experiments were run side by side. ± marks the error that the study gave.

`CN[C@H](CC(C)C)C(=O)N[C@H]1C(=O)N[C@@H](CC(N)=O)C(=O)N[C@H]2C(=O)N[C@H]3C(=O)N[C@H](C(=O)N[C@H](C(=O)O)c4cc(O)cc(O)c4-c4cc3ccc4O)[C@H](O)c3ccc(c(Cl)c3)Oc3cc2cc(c3O[C@@H]2O[C@H](CO)[C@@H](O)[C@H](O)[C@H]2O[C@H]2C[C@](C)(NCc3ccc(-c4ccc(Cl)cc4)cc3)[C@H](O)[C@H](C)O2)Oc2ccc(cc2Cl)[C@H]1O` gave a half-life of 12 h (mouse, plasma; intravenous, 10 mg/kg).
`Cc1ccc(N2CCN(C)CC2)cc1C(=O)N[C@H](C)c1cc(-c2cnn(C)c2)nc2ccccc12` has a viability of 16.5% (African green monkey cells; 125 µM).
`O=C1NC2(CC2)COc2ncc(F)cc2[C@H]2COCCN2c2ccn3ncc1c3n2` — result for “organ-to-body weight ratio”: 0.27 ± 0.064% (Sprague-Dawley rat, male, spleen; oral, 2.5 mg/kg/day, 4 weeks, end of treatment).
`NC1CCN(C(=O)Oc2ccc(C3CCCC4(C3)OOC3(O4)C4CC5CC(C4)CC3C5)cc2)CC1` (racemic) gave a half-life of 7 h (male mouse, plasma; oral, 50 mg/kg).
`CC[C@H](C)[C@H](NC(=O)CNC(=O)[C@H](CCSC)NC(=O)[C@H](CCC(N)=O)NC(=O)[C@H](C)NC(=O)[C@H](CCC(N)=O)NC(=O)[C@@H](NC(=O)[C@H](CC(C)C)NC(=O)[C@H](C)NC(=O)[C@H](CO)NC(=O)[C@H](CCSC)NC(=O)[C@H](CCC(=O)O)NC(=O)[C@H](CC(C)C)NC(=O)[C@H](Cc1ccc(O)cc1)NC(=O)[C@H](CO)NC(=O)[C@H](CCC(=O)O)NC(=O)[C@H](CCC(N)=O)NC(=O)[C@H](CCCNC(=N)N)NC(=O)[C@H](CCCCN)NC(=O)[C@H](CC(=O)O)NC(=O)[C@H](CC(C)C)NC(=O)[C@H](CC(N)=O)NC(=O)[C@H](Cc1ccccc1)NC(=O)[C@H](CCC(=O)O)NC(=O)[C@H](CCCCN)NC(=O)[C@@H](NC(=O)[C@H](CC(C)C)NC(=O)[C@H](CCC(=O)O)NC(=O)[C@H](CCC(=O)O)NC(=O)[C@@H](NC(=O)[C@@H](NC(=O)[C@H](CCCNC(=N)N)NC(=O)[C@H](CCCCN)NC(=O)[C@H](C)NC(=O)[C@H](Cc1ccccc1)NC(=O)[C@H](CCC(=O)O)NC(=O)[C@H](CCC(=O)O)NC(=O)[C@H](CC(C)C)NC(=O)[C@@H](N)CO)C(C)C)C(C)C)C(C)C)[C@@H](C)CC)C(=O)N[C@@H](CO)C(=O)N[C@@H](CCC(=O)O)C(=O)N[C@@H](CCCNC(=N)N)C(=O)N[C@H](C(=O)N[C@H](C(=O)N[C@@H](CCC(=O)O)C(=O)N[C@H](C(=O)N[C@H](C(=O)N[C@@H](CC(C)C)C(=O)N[C@@H](CCCNC(=N)N)C(=O)N[C@@H](Cc1c[nH]cn1)C(=O)N[C@@H](C)C(=O)N[C@@H](C)C(=O)N[C@@H](CCC(N)=O)C(=O)N[C@H](C(=O)N[C@@H](CC(C)C)C(=O)N[C@@H](CCCCN)C(=O)O)[C@@H](C)O)C(C)C)[C@@H](C)CC)[C@@H](C)CC)[C@@H](C)CC` has a half-life of 2.66 h (male mouse, plasma; intravenous, 1 mg/kg).
`CCCCCn1ccc(C(=O)NC(C)(C)c2ccc(CNC(C)=O)cc2)n1` has a half-life of 1.4 h (mouse, plasma; intraperitoneal, 2.5 mg/kg).
The half-life of `CC(C)=CCC/C(C)=C\CCn1cc(CC(P(=O)(O)O)P(=O)(O)O)nn1` is reported as 107 h (CD-1 mouse, plasma; intravenous, 0.5 mg/kg, single dose).
With `CC(C)[C@H](NC(=O)[C@H](Cc1ccccc1)NC(=O)[C@H](Cc1ccccc1)NC(=O)OCC1c2ccccc2-c2ccccc21)C(=O)N[C@@H](CCC(=O)O)C(=O)N[C@@H](CCC(=O)O)C(N)=O` the half-life was 1.35 h (mass spectrometry; mouse, blood; intravenous, 10 mg/kg, single dose).
For `COc1nc(CC=C(C)CC=CC(C)=CC(C)C(OC2OC(CO)C(O)C(O)C2O)C(C)=CCO)c(C)c(O)c1OC` (stereo not shown), the half-life was 0.376 h (C57BL/6 mouse, plasma; oral, 10 mg/kg).
`CCCCCCCCCCCCCCCCCC(=O)NC[C@H]1CC[C@H](C(=O)N[C@@H](CCC(=O)NCCCOCCOCCOCCCNC(=O)COCC(=O)N[C@@H](Cc2ccc(O)cc2)C(=O)NC(C)(Cc2ccccc2)C(=O)N[C@@H](CC(C)C)C(=O)N[C@@H](CCCC)C(=O)N[C@@H](CCCNC(=N)N)C(=O)N2CCC[C@H]2C(=O)N[C@@H](CCCNC(=N)NC)C(=O)N[C@@H](CC(N)=O)C(N)=O)C(=O)O)CC1` (stereo partly shown) has a half-life of 4.7 h (male C57BL/6 mouse, plasma; subcutaneous, 0.75 mg/kg, single dose).
`CC(C)C[C@@H](NC(=O)[C@@H](CCCCN)NC(=O)CNC(=O)CNC(=O)[C@@H]1CSSC[C@H](N)C(=O)NCC(=O)N[C@@H](CCCNC(=N)N)C(=O)N[C@@H](CCCNC(=N)N)C(=O)N[C@@H](C)C(=O)NCC(=O)NCC(=O)N[C@@H](CO)C(=O)N1)C(=O)N[C@H](C)C(=O)N[C@H](CCCCN)C(=O)N[C@H](CC(C)C)C(=O)N[C@H](C)C(=O)N[C@H](CCCCN)C(=O)N[C@H](CCCCN)C(=O)N[C@H](CC(C)C)C(=O)N[C@H](C)C(=O)N[C@H](CCCCN)C(=O)N[C@H](CC(C)C)C(=O)N[C@H](C)C(=O)N[C@H](CCCCN)C(=O)O` has a half-life of 0.25 h (mouse, plasma; intravenous, 15 mg/kg).
`Cc1ccc(OC[C@@H]2CCN2C)cc1C(=O)N[C@H](C)c1cc(-c2cnn(C)c2)nc2ccccc12` gave a viability of 44.6% (African green monkey cells; 125 µM).
The half-life of `O=C(CN1C(=O)C2(CCN(C(=O)c3ccc4[nH]ncc4n3)CC2)c2c(Br)cccc21)NCC(F)(F)F` is reported as 1.4 h (male C57BL/6 mouse, plasma; intravenous, 2 mg/kg).

Excerpt of the above:
`CCCCCn1ccc(C(=O)NC(C)(C)c2ccc(CNC(C)=O)cc2)n1` has a half-life of 1.4 h (mouse, plasma; intraperitoneal, 2.5 mg/kg).
